# Results from different studies.
# A part holds a random share of what one study measured. Substitutions count along the parent as printed.

# Study 1
# Target: RING finger protein unkempt homolog, zinc fingers 1-6, SBP tag (UNK, Homo sapiens, UniProt Q9C0B0, residues 30-357)
# Chain of UniProt Q9C0B0 (30-357, looked up): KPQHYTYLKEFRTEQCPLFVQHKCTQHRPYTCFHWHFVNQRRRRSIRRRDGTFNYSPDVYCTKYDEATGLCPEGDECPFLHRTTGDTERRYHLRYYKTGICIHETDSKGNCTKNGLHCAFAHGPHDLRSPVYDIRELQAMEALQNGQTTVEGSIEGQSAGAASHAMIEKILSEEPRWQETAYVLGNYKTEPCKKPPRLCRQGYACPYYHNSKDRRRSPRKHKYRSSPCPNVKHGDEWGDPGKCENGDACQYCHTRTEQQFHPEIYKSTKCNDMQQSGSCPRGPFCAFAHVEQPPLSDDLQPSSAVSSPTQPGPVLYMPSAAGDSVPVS
# Technique: RNA Bind-n-Seq
# Molecule type: RNA
# Medium: in vitro
# Concentration: 100 nM
# Notes: RNA with constant flanks, vertebrate orthologous sites, ends assumed
# Reference: input RNA pool
# Direction: higher = stronger binding
Oligonucleotide,bound/input enrichment
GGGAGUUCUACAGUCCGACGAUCCAUCUAUUUCAUUUUGAAGACAGUGUCUUUGGUUGUUCACGUUGUUCUUUUUGAUGGCUGGGUUACCGAGUAUCUUUUGGCAUCUGCCUGAAUCACUUCCACUGAGUGAACCAGUCACCACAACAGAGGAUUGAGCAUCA,0.266 ratio
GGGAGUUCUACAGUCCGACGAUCAUGAUUUUCAAUCUCUUUUCCCUUACCCUGAUUUUAAAAGCCCUUCUUUUUUUUUUUUAGGCAUAUAUAGUAAUAUUAGCAGAAAGAUUUAAUUUGAGCAACUUUGAUUCUUAAAAGAGACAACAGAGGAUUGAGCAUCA,0.499 ratio
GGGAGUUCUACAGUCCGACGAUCAUCCUCUCACACUGUCCCCGGCCAGGGUUGAGGACCAGAUGUUUCACCAAGGACCUGCAUUUCACACAGUUUUUAAAAUUGUCAUACAGAUGUGACGAAAACAGCAUCUCAGAGCCGAGGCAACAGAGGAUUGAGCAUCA,0.257 ratio
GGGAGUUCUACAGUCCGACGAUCAAGGUUUUUUUUUUAAUUUAAUUUUUUUUCCUUUUGGGGGUAAAAGUUUGCUCUAUCAAAUAGUGAUCGUAAGCAAUUGAUCUGUUUUGGUUGUUGCUAUAGUGACAUGCAGUUCUAUAUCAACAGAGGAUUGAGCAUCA,0.683 ratio
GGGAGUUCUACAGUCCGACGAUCAAAUUUAUUUCAUGCCCUGGACUCCUUAUCGUACCGAUACUUUAAUAGAAUAUGCUUCUUUAGAAGAUUUCCAAAGCAGUCGCCAAACAACAACAUAUAAACUUCCAAAUCGAGUAGAUGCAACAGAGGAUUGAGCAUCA,1.27 ratio
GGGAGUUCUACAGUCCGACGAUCGUUGUGACCCAUUUAACAUACACAGGAAAGUAUCAAAGAAAAACUUACGUUCAAUCGACUUAGAUGAUGCAGCUUUUCUAAGUGCCAAGUUUGGAAGACAGUUUGUACCUGGUUGGAAGCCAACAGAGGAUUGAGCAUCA,1.07 ratio
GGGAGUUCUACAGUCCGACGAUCGCACUCCCCAUGCGAAUUUCACAACACUGAAUGCAAAGUAGUAGUUUUCGUAGUCACAGUAAGGUAGCUUUAGGGCGGUAUCACCGUGGUGUUACUCGUGCAGGUUUUGAAAAUGUAUAACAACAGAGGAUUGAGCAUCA,0.968 ratio
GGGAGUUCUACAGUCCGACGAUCUGGGGACCAGUUCUCCGACUCGGCUCAGUAGUGGAGACAACAGGCAGAAUGACACCUGUAUAGAAAAAGCAGAAGUUCAAUCAUGUAAAGCACAUGCUGCCGGUGGUCCAGGCUCUAAGGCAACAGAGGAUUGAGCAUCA,0.155 ratio
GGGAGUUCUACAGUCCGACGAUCUAAGAUUUGGAUCCUGGAGCCAAACCAAGGGGUUUGAAAGUAAAGAGAUUUGUGAAAUGCCAGCACACACAGCUGCAAGACUGCGCCACUUCUAGCUGCUGUGUUCAGGUGUUUAUUACACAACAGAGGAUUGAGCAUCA,0.393 ratio
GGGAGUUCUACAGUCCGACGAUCCCGAAAGGCCAGAUCCCCUCUCCCCUUCUACUGCUUCUACCAACUGGAAGCACAGAAAACUAGAAUUUCAUUUAUUUUGUUUUUAAAAAUACAUGUUGAUUUCUUGUAACAUCCAAUAGGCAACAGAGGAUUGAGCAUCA,0.377 ratio
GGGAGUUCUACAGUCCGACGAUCCUUAAUUAGAGGACAAUAUAUGUUUCAUAAGGAAGAGUCUUUAUAAUUUUGUUUGUCAGAUAGUAUUUUGGAAUUUGUAUAAUGAGGAUGUUUAGAAGCCAUAUAAGUGGCUUUUUUUUUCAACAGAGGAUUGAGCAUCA,0.442 ratio

# Study 2
# Target: Prothrombin, mature alpha-thrombin (F2, Homo sapiens, UniProt P00734)
# Technique: aptamer microarray, sandwich
# Molecule type: DNA with 2'F-ANA
# Medium: in vitro
# Concentration: 200 nM
# Notes: whole 15-mer aptamer, many near background
# With: Cy3 exosite-II aptamer, 400 nM
# Direction: higher = stronger binding
# Oligonucleotide: GGTTGGTGTGGTTGG
Modification,mean fluorescence intensity
2'F-ANA at 2 3 6 7 10 11 12 15,372 a.u.
2'F-ANA at 2 3 5 9 10 11 12 13 15,60.1 a.u.
2'F-ANA at 1 2 5 6 8 9 10 11 12 13 14,51.7 a.u.
2'F-ANA at 2 5 6 7 12 13,109 a.u.
2'F-ANA at 4 7 10 12 13 14 15,61.5 a.u.
2'F-ANA at 1 2 3 4 6 8 10 11 14 15,52.5 a.u.
2'F-ANA at 2 3 4 6 15,541 a.u.
2'F-ANA at 2 6 8 9 11 12 14 15,143 a.u.
2'F-ANA at 1 3 6 8 10 12 14 15,78.9 a.u.
2'F-ANA at 2 3 5 6 8,111 a.u.
2'F-ANA at 3 4 9 10 11 12 15,351 a.u.
2'F-ANA at 1 2 8 14 15,57.4 a.u.
2'F-ANA at 1 2 4 6 7 10 11 12 14 15,46.5 a.u.
2'F-ANA at 2 3 5 11 15,80.7 a.u.
2'F-ANA at 2 3 8 12 13,1070 a.u.
2'F-ANA at 1 3 4 5 6 7 8,66.2 a.u.
2'F-ANA at 1 2 3 5 6 11 15,58.6 a.u.

# Study 3
# Target: RNA binding protein fox-1 homolog 2, RRM domain, GST-SBP tag (RBFOX2, Homo sapiens, UniProt O43251-10, residues 100-194)
# Technique: RNA Bind-n-Seq
# Molecule type: RNA
# Medium: in vitro
# Concentration: 365 nM
# Notes: natural RNA segment, single round, ends assumed
# Reference: no-protein control
# Direction: higher = stronger binding
# Target sequence (chain): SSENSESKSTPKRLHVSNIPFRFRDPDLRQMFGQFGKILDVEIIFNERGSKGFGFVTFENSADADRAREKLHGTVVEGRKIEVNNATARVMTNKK
Oligonucleotide,RBNS enrichment (R)
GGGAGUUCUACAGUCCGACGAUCAUUAUCACGUCUGACAAAUGUGUAUGUGUGGUUUCAGUUCUGUGUACAUUUUAAAGGAUAAUGGUGAACAUUUUAAUGGGUUUCCCUUGCCCUUUCCAUAUUUAACCUAUUGGAAUUCUCGGGUGCCAA,0.481
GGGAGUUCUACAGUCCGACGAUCGUAAAUAUUCUGCCAUAGGAAUACUUCUGUCUACAUGCUUUCUCAUCCAAGAAUUCGUCAUCACGCUGCACAGGCUGCGUCUUUGACGGUGGGUGUUCCAUUUUUAUCCGUGGAAUUCUCGGGUGCCAA,0.246
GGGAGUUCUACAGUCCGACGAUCUGAGUCAUAGAAAAAUGGCCUUAUUUCUCCAGAAGUGAGUAAACCACACUUCCAGGCUAUCUGAACUCCUGAAGCCCUAAAAAUAAAAAGCACAGUUGUAACUACCUGAAUGGAAUUCUCGGGUGCCAA,0.667
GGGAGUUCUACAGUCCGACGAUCAUAUUUGGAGCUAUCAGUGCUUUGUUGAUUUAGAUGAUGACUCAAGAUUUUUUCUGGUCCAUUUCCCAUUUCCUUUUCUUCCCUGACCCCCAUACCCUCACCCUUAAAAUUGGAAUUCUCGGGUGCCAA,1.6
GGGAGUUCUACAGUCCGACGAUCGACAAACACCCUGUUGAACUGAGAGAAGUAAACUCCAGAAGGGAACCAAGAUUUCCUCCCUUUCCUGGUGAGUGUUUCCAUUAUUCCGUUAAGGUUUAAUAUGCAUUCAGUGGAAUUCUCGGGUGCCAA,0.233
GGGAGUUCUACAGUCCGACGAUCAUGUACAUAGAAUUGCCAGUGUAUAAAUUAAGAUGUUUUAUUGUUGUUGUCCUUCUUAAUCUCAUUAUACUUCAUCAUGUUGAGUUUCCCAACAUGUGAUGACUAUUCUUUGGAAUUCUCGGGUGCCAA,1.07
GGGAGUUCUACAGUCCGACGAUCGUUUUUGAGGAUCCCUGGGUCUUCUGAGACUGGCCAGGAGAGGGAUGGUGGGGCCAGUGGUUGUGUGAAAGCAGGAGGGGCAGCCCUCCUGGACAAGUGUGAUCCCCCUAUGGAAUUCUCGGGUGCCAA,0.318
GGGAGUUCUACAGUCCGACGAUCUGGUACCCUGGCUGCCCAGGCCAGUGCUGCAGCUCUGCAGAAUGUUCAGCAUGCCAUUUCUGACUGGCACAUCUCGUGAAGUUUCAUAGAAACAAGGAGUUGGCAUCUUGUGGAAUUCUCGGGUGCCAA,2.56
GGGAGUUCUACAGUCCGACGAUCGAGGGAAACGCCCCCAGACUCCUGCUGCCACUGUUUUGUGAACUAAUGAACAUGAGCAGAAGCCUAAGUUGGGACAGCUCAGAACCAAGCAAGAGGGGGCCGUUUUAAUGUGGAAUUCUCGGGUGCCAA,0.431

# Study 4
# Target: CCND3, cyclin fold, Cln2 fusion (human)
# Technique: yeast growth competition, sequencing
# Medium: yeast
# Notes: weak parent motif
# Reference: not given
# Direction: higher = stronger binding
# Parent: SCAPER docking peptide (human); SNARRSLNFGGST
Substitution,normalised enrichment score
A3V,0.0179
G11N,0.105
G11T,0.188
G11L,0.125
G10A,0.124
R4Q,-0.0227
F9S,0.15
R4T,0.152
A3D,0.0642
R4F,0.0459
S6W,0.183
S1Q,0.126
G10P,0.158
S12M,0.0197
R5N,0.0363
R4I,0.152
T13K,0.152
L7H,0.135
